Measured values collected from several papers.
Compare with care: the assays were run in different laboratories. Several values in a cell are separate wells, animals, samples, runs or records. ± marks the error that the study gave.

The inhibition of O=C(O)C(Cl)Cl.OCCN(CCO)CCO is reported as 0% (Amaranthus retroflexus; herbicidal activity; 15 mg/mL, 21 days, pre-emergence greenhouse).
For COc1ccccc1-c1n[nH]c2nc(NC3CCN(C(=O)Cc4ccc(F)cc4F)CC3)ncc12, the EC50 was 0.0052 ± 0.0004 µM (Leishmania donovani; cell growth; promastigotes, LdBOB; life-cycle stage comparison).
C[N+]1=C2C(c3ccccc3)=[N+]([O-])c3ccccc3N2CCC1 gave an MIC90 of 2 µg/mL (Bacteroides fragilis).
Cc1cc(C(=O)Nc2nc3cccc(C)c3n2[C@H]2CCCCN(C(=O)/C=C/CN(C)C)C2)ccn1 has a survival of 69.8% and 72.2% and 77.3% and 73.1% (Trypanosoma brucei brucei; 2T1 CLK1 overexpressing; 5 µM, compound pretreated; relative to: maximum).
NCCc1cccc(-c2nc(=O)c3ccccc3s2)n1 gave an EC50 of > 100 µM (Acinetobacter baumannii; cell growth, inhibitor; NCTC 13424 XDR; 5% CO2).
For CN(C)S(=O)(=O)c1ccc(S(=O)(=O)N2CCC(n3c(=O)[nH]c4ccccc43)CC2)cc1, the rifampicin concentration was 62.5 µg/mL (Escherichia coli; Keio wild type; concentration not given, 72 h).
With CC(C)[C@H]1NC(=O)[C@H](Cc2ccccc2)NC(=O)[C@@H](C(C)C)NC(=O)[C@@H](C)NC(=O)[C@H](CO)NC(=O)[C@@H](Cc2c(-c3ccc(-c4ccc5ccccc5c4)cc3)[nH]c3ccccc23)NC(=O)[C@@H](C)NC1=O the MIC90 was > 50 µM (Vibrio vulnificus; broth dilution).
C[C@@H]1NC(=O)[C@@H](CCCN)NC(=O)[C@H](Cc2ccccc2)NC(=O)[C@@H](Cc2ccccc2)NC(=O)[C@H](Cc2ccccc2)NC(=O)[C@@H](CCCN)NC1=O gave an IC90 of > 20 µM (Balamuthia mandrillaris; parasite growth, ATP luminescence).
The MBEC of Oc1c(Br)cc(Br)c2nc3ccccc3nc12 is reported as > 200 µM (Enterococcus faecalis; Calgary biofilm device; OG1RF).
Under “fresh weight inhibition”, C#CCN1C(=O)C(CC#C)(C(=O)OCC)Oc2ccccc21 (stereo not shown) is recorded as > 75% (Amaranthus retroflexus; greenhouse; postemergence, 150 g ai/ha, 21 days).
For CN(C(=O)c1ccn2ncc(-c3ccc(C(N)=O)cc3)c2c1)c1ccc(C#N)cn1, “luciferase total flux” read 8.55e+06 photons/s and 238000 photons/s and 2.12e+06 photons/s and 1.8e+06 photons/s and 1.07e+06 photons/s (Cryptosporidium parvum; whole-animal imaging; UGA2 Fluc, mouse; 10 mg/kg daily, day 7).
CCc1nn(C)c2nc(-c3ccc(C(=O)O)cc3)nc(NCc3ccccc3)c12 has a parasite number of 27.6% and 23.6% and 44.3% and 28.3% (Cryptosporidium parvum; HCT-8; 6 x EC90, 48 h; relative to: DMSO control).
The inhibition of CCOC(=O)C1(Cc2cc(OC)cc(OC)c2)Oc2cc(F)ccc2N(Cc2cc(OC)cc(OC)c2)C1=O (stereo not shown) is reported as 59.6 ± 3.14% (Amaranthus retroflexus; fresh weight, greenhouse postemergence; postemergence, 150 g ai/ha, 21 days).

Repeated from above:
The inhibition of O=C(O)C(Cl)Cl.OCCN(CCO)CCO is reported as 0% (Amaranthus retroflexus; herbicidal activity; 15 mg/mL, 21 days, pre-emergence greenhouse).
Cc1cc(C(=O)Nc2nc3cccc(C)c3n2[C@H]2CCCCN(C(=O)/C=C/CN(C)C)C2)ccn1 has a survival of 69.8% and 72.2% and 77.3% and 73.1% (Trypanosoma brucei brucei; 2T1 CLK1 overexpressing; 5 µM, compound pretreated; relative to: maximum).
